Published values gathered from unrelated publications.
Numbered parts are unrelated; each lists some results of a single study.

Set 1 — method: RNA Bind-n-Seq; form: RNA; sample: in vitro; tested at: 365 nM; baseline: no-protein control; direction: higher = stronger binding; endpoint: RBNS enrichment (R)
Target: RNA binding protein fox-1 homolog 2, RRM domain, GST-SBP tag (RBFOX2, Homo sapiens, UniProt O43251-10, residues 100-194)
Setting: natural RNA segment, single round, ends assumed
Target sequence (chain): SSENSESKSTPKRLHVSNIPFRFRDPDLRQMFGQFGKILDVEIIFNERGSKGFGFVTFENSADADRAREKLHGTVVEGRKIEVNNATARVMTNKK
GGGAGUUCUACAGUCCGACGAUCAUGAAUACUCUCUAGGAAAUGUGCAAUUUCAUGGUAAUUAUUUUUUAGAAAAGUCAAUUUAAUAAAUUAUCGCCUUUAGCAUUGUAACAGUUUUCAAAAAUAAAGAAAAGUGGAAUUCUCGGGUGCCAA: 0.546
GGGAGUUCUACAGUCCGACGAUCGCAGCGUCUGCCAUGAAACCAGUUCACCGCUCCUCUCCAUGAAUUGACCUUUUCAAUUUUUUUAAAGUUAUUUUUGAGACAGAGCCUCAUGUAGCCCAGGCUGGCCUUGAUGGAAUUCUCGGGUGCCAA: 0.423
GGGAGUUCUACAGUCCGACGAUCGCUUAGCUGGACUUAGAUCUUCGGUGGCCUCAUGUAAACGUGGCAGCCAGCCUCUUCUAGAACCCUAGCCCAGGGACUGGAGCAGGAAAGGGACCUUCAAAGUGAAGACUUGGAAUUCUCGGGUGCCAA: 0.313
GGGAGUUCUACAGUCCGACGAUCCCUCCAGCUGGGUGUGGGGGGGCGGAGCAAGGCGGGGGACAGACGCAGCACCUUCUUAGCGAUCUAGGCCUGGCAAGAGCUCUGGCCCCAAGGCCUCCUCUUCCCAGGGGUGGAAUUCUCGGGUGCCAA: 2.43
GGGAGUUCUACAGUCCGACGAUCAUGUAAUGGAUUAUGUGGAAUUGUAGUGCCAUCGGUUUUUACUUAGAGCCCUUGACGUGCUUGGACCAAUAUUUCCUUCCUUCUUAUGAACCAGGUUUUUCCUUCUGAUUUGGAAUUCUCGGGUGCCAA: 0.383
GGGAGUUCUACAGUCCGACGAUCGAUGCAGAGGCAGGCCUGCUGACCAACUUGUUGCAAUCACAAAGGUGGGGGUCCUGGUGCAGGCAGUGAACAGGCUUCUAAUGUGGGGUUCAGUAGUGCCAGCAAGUGGGUGGAAUUCUCGGGUGCCAA: 0.587
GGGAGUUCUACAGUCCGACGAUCAGAGGAGGACUUGGCCUCAAGCCUGAAGAACAAAAGUCUCAGAAAGCAAAGAACAGCAUCACCUUGAUAAAUGUCUUGACUCAGUCUGCGGCUUGUGAUCUGAAAAGUUCUGGAAUUCUCGGGUGCCAA: 0.315
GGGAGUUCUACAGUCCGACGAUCGAGGCCACUGGCUUCCAUCCUAAGAAUGAGGUGCAACAAGACCCCAUUCUCACAGAACCUCAAAGACUUGGUUCCAGGCUCUCCAGAGACCAUACCCAACUCAUGUGCAUUGGAAUUCUCGGGUGCCAA: 0.229

Set 2 — method: RNA Bind-n-Seq; form: RNA; sample: in vitro; tested at: 200 nM; setting: whole 134-nt RNA, ends assumed; added: 150 mM LiCl; baseline: input library; direction: higher = stronger binding; endpoint: log2 enrichment; library: 7-deaza-guanosine replaces G
Target: Ras GTPase-activating protein-binding protein 1, full length (G3BP1, Homo sapiens, UniProt Q13283)
Chain of UniProt Q13283 (whole entry, looked up): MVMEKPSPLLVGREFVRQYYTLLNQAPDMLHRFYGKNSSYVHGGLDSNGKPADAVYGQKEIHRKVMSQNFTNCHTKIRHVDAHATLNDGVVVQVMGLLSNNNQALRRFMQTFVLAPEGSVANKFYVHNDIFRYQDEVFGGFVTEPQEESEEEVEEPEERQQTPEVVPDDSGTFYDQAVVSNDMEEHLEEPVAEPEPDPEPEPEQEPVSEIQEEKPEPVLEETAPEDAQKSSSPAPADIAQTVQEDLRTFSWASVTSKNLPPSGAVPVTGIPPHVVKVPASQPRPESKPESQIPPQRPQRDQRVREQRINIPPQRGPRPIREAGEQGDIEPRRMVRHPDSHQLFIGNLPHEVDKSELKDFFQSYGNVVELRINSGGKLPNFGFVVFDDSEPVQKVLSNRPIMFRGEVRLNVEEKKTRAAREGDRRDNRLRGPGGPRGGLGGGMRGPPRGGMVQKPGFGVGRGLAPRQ
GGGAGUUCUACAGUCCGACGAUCCACAGACAAAACGCACCCACACAGACACAGAGGGAAGGGGUUGGGAUGGGGACAGGGUGCACAGCAGGGCGGGGUAGGACCCCAGCCCCUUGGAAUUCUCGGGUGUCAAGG: 0.375
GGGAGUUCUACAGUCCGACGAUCCAAGUCCUGUGCUACACAUCGUAUGUACCGAAUCGGGCCCGGGGCCCGGGCCCGGGAAAGUAUUAUGUUACGCCGUUCGGAUCUGCACUUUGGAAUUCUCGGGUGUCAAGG: -1.78
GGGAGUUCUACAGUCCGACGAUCUGGGAGGUGGAUUUUGUUUAUUUUUUUAGCUCAUUUCCAGGGGUGGGAAUUUUUUUUUAAUAAGUGUCAUGAAUAAAGUUGUUUUUGAAAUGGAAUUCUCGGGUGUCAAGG: -0.305
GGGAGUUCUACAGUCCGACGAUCUGGGGAGACUACGAUGACAGCGCCUUCAUGGAGCCCAGGUACCACGUCCGUGGAGAAGAUCUGGACAAGCUCCACAGAGCUGCCUGGUGGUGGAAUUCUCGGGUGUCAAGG: -1.86
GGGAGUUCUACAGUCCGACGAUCUCCUGUGCUACACAUCGUAUGUACCGAAUCGGGGAAAAAAGGAAAAAAGGGGAAAAAAGGAAAGUAUUAUGUUACGCCGUUCGGAUCUGCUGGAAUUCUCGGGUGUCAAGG: -0.37
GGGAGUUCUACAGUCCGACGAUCCUGUGCUACACAUCGUAUGUACCGAAUCGGGGUUUUUUUGGGGUUUGGGGAAAAAAAGGGGAAAGUAUUAUGUUACGCCGUUCGGAUCUGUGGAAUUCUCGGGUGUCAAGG: -0.0822
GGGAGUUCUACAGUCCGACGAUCAAGUCCUGUGCUACACAUCGUAUGUACCGAAUCGGUGGUUUUUUUGGUUUUUUUGGAAAGUAUUAUGUUACGCCGUUCGGAUCUGCACUUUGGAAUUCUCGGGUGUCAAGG: -0.333
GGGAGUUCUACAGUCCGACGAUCCAAGUCCUGUGCUACACAUCGUAUGUACCGAAUCGGAAAGGUUUUUGGAAAAAGGAAAGUAUUAUGUUACGCCGUUCGGAUCUGCACUUCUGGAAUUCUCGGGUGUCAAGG: -0.515

Set 3 — method: aptamer microarray, sandwich; form: DNA with 2'F-ANA; sample: in vitro; tested at: 200 nM; added: Cy3 exosite-II aptamer, 400 nM; direction: higher = stronger binding; endpoint: mean fluorescence intensity; strand: GGTTGGTGTGGTTGG
Target: Prothrombin, mature alpha-thrombin (F2, Homo sapiens, UniProt P00734)
Setting: whole 15-mer aptamer, many near background
2'F-ANA at 3 4 6 10 11: 240 a.u.
2'F-ANA at 2 11 13 14: 123 a.u.
2'F-ANA at 1 2 3 4 5 6 8 15: 62.9 a.u.
2'F-ANA at 1 3 4 5 7 9 10 15: 45.5 a.u.
2'F-ANA at 3 5 11 13: 107 a.u.
2'F-ANA at 1 3 4 7 8 9 11 12 14: 85.4 a.u.
2'F-ANA at 1 3 5 7 8 9 10 11 12 14 15: 47.6 a.u.
2'F-ANA at 1 3 4 6 8 9 10 11 15: 63 a.u.
2'F-ANA at 1 3 9 11 12 15: 366 a.u.
2'F-ANA at 2 4 5 7 8 9 11 12 14: 45.9 a.u.
2'F-ANA at 1 5 6 8 11: 54.5 a.u.
2'F-ANA at 1 4 5 7 10 11 12 15: 46.5 a.u.
2'F-ANA at 1 3 5 6 12: 106 a.u.
2'F-ANA at 2 3 4 6 9 10 12 13 14: 157 a.u.
2'F-ANA at 2 10 15: 134 a.u.
2'F-ANA at 4 5 6 7 8 9 10 11 13 14 15: 50.3 a.u.
2'F-ANA at 5 7 9 12 14 15: 46.4 a.u.
2'F-ANA at 1 9 10 14: 48.1 a.u.
2'F-ANA at 3 10 14 15: 403 a.u.
2'F-ANA at 2 3 5 6 8 9 10 12 14 15: 50.8 a.u.
2'F-ANA at 3 6 9 10 13 14: 400 a.u.

Set 4 — method: protein-binding microarray; form: double-stranded DNA, one strand shown; sample: in vitro; tested at: 940 nM top; setting: 60-bp whole probe; added: salmon DNA 0.4 mg/ml; baseline: random background probes; direction: higher = stronger binding; endpoint: fitted relative affinity; constant ends, left off below: GCCTAGCAC … GTCTTGATTCGCTTGACGCTGCTG
Target: Interferon regulatory factor 5, full length, phosphomimetic (IRF5, Homo sapiens, UniProt Q13568-2, residues 1-514, S451D/S453D/S456D/S462D)
TTAGGGTTCGGGTATCGGTTAGTGCTA: 3.04 z-score
GACGGTTTCGACACTGAGGACGTGCTA: 6.91 z-score
GACGGTTTCGGTCTCGGTACGTGCTAG: 13.6 z-score
TTAGAACTGGAGTATCGATTAGTGCTA: 2.8 z-score
TTACGTCTCCTTTTCCTTTAGTGCTAG: 1.53 z-score
TCATTTTACTTTCTATCACTGTGCTAG: 3.12 z-score
AGATCCATGCTCTGTCGCAGGGTGCTA: -0.477 z-score
AACGATCTCAGACTGGAGACGTGCTAG: -0.343 z-score
AGACCTTCACCTCTCTGTCCGTGCTAG: 0.858 z-score
GCCGGTATCGGTATCGGGACGTGCTAG: 10.1 z-score
TCATGGTTGAACATGAAACTGTGCTAG: -0.391 z-score
TTAGATGTCAGTATCGATTAGTGCTAG: 4.95 z-score
GACGATTTCAGTTCCGAGAGGTGCTAG: 0.522 z-score
TTAGGACTGGGGTTTCAGTTAGTGCTA: 1.68 z-score
TCAAGTCTCTGTTCTTTACTGTGCTAG: 1.58 z-score
TTAGGTATCCTACTGATTTAGTGCTAG: -0.222 z-score
ATAGATATCGGGACTGGATTAGTGCTA: 0.0384 z-score
GACGGTATCAGACTGGGGACGTGCTAG: 0.481 z-score
TCATGTTTCTCAAATGTTACTGTGCTA: 0.917 z-score

For quick reference, copied from above (set 3):
2'F-ANA at 2 3 5 6 8 9 10 12 14 15: 50.8 a.u.
2'F-ANA at 1 5 6 8 11: 54.5 a.u.
2'F-ANA at 1 3 4 7 8 9 11 12 14: 85.4 a.u.
2'F-ANA at 1 3 5 7 8 9 10 11 12 14 15: 47.6 a.u.
2'F-ANA at 1 3 9 11 12 15: 366 a.u.
2'F-ANA at 2 4 5 7 8 9 11 12 14: 45.9 a.u.
2'F-ANA at 1 3 4 5 7 9 10 15: 45.5 a.u.
